Results of several laboratories.
Each line is one published result; not all experiments were run side by side. Numbers after ± are the reported error. Values after ≈ are worked out from the molar mass of the structure shown.

The IC50 of `CC1OCC2OC(OC3C(N)CC(N)C(O)C3OC3OC(CO)C(OC4OC(CN)C(O)C(O)C4N)C3O)C(N)C(O)C2O1` (stereo not drawn) is reported as 5.42 ± 1.23 µg/mL (Mycobacterium smegmatis ribosome A1408G; translation, cell-free luciferase synthesis).
For `CCn1c2ccccc2c2cc(C(=O)c3ccc(C)c4ccccc34)ccc21`, the IC50 was 1600 nM (tubulin polymerisation, inhibitor, absorbance).
`CC(C)CC(O)(CC(C)C)c1cn(C(=O)N2CCCC2)nn1` gave a protein level of 0.98 ± 0.01 (mouse T-cells; SILAC proteomics, refers to: NDRG1; 1 nM, 6 h, unit not given; reference: DMSO).
For `CCCCCCCCC(=O)NCc1ccc(O)c(OC)c1`, the IC50 was greater than 4 µg/mL (mAb 6-AT6; antibody binding, indirect competitive ELISA; with: coating antigen 6-OVA).
`CCCCCCCCOCc1cn(CC2=CC[C@@H]3C(C(=O)OC)=CO[C@@H](O)[C@H]23)nn1` gave a viability of 53.7 ± 2.5% (SK-N-SH; neuroprotection, MTT; 0.3 µM, 24 h, with: 250 µM H2O2).
The IC50 of `CCO[C@H]1[C@H](O)[C@@H](N)[C@@H](O[C@H]2[C@H](O[C@@H]3O[C@H](CO)[C@@H](O[C@H]4O[C@@H](CN)[C@@H](O)[C@H](O)[C@H]4N)[C@H]3O)[C@@H](O)[C@H](N)C[C@@H]2N)O[C@@H]1CO` is reported as 8.83 ± 3.1 µg/mL (Mycobacterium smegmatis ribosome A1408G; translation, cell-free luciferase synthesis).
With `COC(=O)C1=CO[C@@H](OC(C)=O)[C@@H]2C(Cn3cc(CCO)nn3)=CC[C@H]12` the viability was 77.1 ± 2.1% (SK-N-SH; neuroprotection, MTT; 0.15 µM, 24 h, with: 250 µM H2O2).
`CSC(=NNC(=O)c1ccc([N+](=O)[O-])cc1)SC` gave an MIC of 25 µg/mL (≈ 87.6 µM) (Mycobacterium; Kansasii).
With `CC[C@H](C)[C@@H]1NC(=O)CNC(=O)[C@@H]2Cc3c([nH]c4ccccc34)SC[C@H](NC(=O)CNC1=O)C(=O)N[C@@H](CC(=O)NCc1cn(CCNC(=O)OCCSSCCC(=O)NCc3cn(CC(=O)N[C@H](Cc4ccccc4)C(=O)N[C@H]4CSSC[C@@H](C(=O)N[C@H](C(=O)O)[C@@H](C)O)NC(=O)[C@H]([C@@H](C)O)NC(=O)[C@H](CCCCN)NC(=O)[C@@H](Cc5c[nH]c6ccccc56)NC(=O)[C@H](Cc5ccc(O)cc5)NC4=O)nn3)nn1)C(=O)N1C[C@H](O)C[C@H]1C(=O)N[C@@H]([C@@H](C)[C@@H](O)CO)C(=O)N2` the EC50 was 4.2 nM (AR-42J; cell growth or viability, MTS).
`C=CCO[C@H]1[C@H](O)[C@@H](N)[C@@H](O[C@H]2[C@H](O[C@@H]3O[C@H](CO)[C@@H](O[C@H]4O[C@@H](CN)[C@@H](O)[C@H](O)[C@H]4N)[C@H]3O)[C@@H](O)[C@H](N)C[C@@H]2N)O[C@@H]1CO` gave an IC50 of 12.3 ± 1.57 µg/mL (Mycobacterium smegmatis ribosome A1408G; translation, cell-free luciferase synthesis).
`COC(=O)C1=CO[C@@H](OC(C)=O)[C@@H]2C(Cn3cc(CCBr)nn3)=CC[C@H]12` has a viability of 61.9 ± 0.2% (SK-N-SH; neuroprotection, MTT; 0.6 µM, 24 h, with: 250 µM H2O2).
With `C=CCc1cc2c(c(OC)c1OC)OCO2` the GI50 was greater than 250000 nM (SK-OV-3; cell growth or viability, MTT; 72 h).
With `COC(=O)C1=CO[C@@H](OC(C)=O)[C@@H]2C(Cn3cc(-c4ccc(OC)cc4)nn3)=CC[C@H]12` the viability was 72.5 ± 0.6% (SK-N-SH; neuroprotection, MTT; 0.075 µM, 24 h, with: 250 µM H2O2).
With `COCOC[C@H]1O[C@H](O[C@H]2[C@H](O[C@@H]3O[C@H](CO)[C@@H](O[C@H]4O[C@@H](CN)[C@@H](O)[C@H](O)[C@H]4N)[C@H]3O)[C@@H](O)[C@H](N)C[C@@H]2N)[C@H](N)[C@@H](O)[C@@H]1OCOC` the IC50 was 80.4 ± 20.2 µg/mL (Mycobacterium smegmatis ribosome A1408G; translation, cell-free luciferase synthesis).
`COC(=O)C1=CO[C@@H](OC(C)=O)[C@@H]2C(Cn3cc(CON4C(=O)c5ccccc5C4=O)nn3)=CC[C@H]12` gave a viability of 71.6 ± 0.1% (SK-N-SH; neuroprotection, MTT; 0.15 µM, 24 h, with: 250 µM H2O2).
`CSCC[C@@H]1NC(=O)[C@H](CCCNC(=N)N)NC(=O)[C@H](Cc2ccc(O)cc2)NC(=O)[C@@H](NC(=O)[C@H](CCCNC(=N)N)NC(=O)[C@H](CCCCN)NC(=O)[C@H](CC(=O)O)NC(=O)[C@H](C)N)CSSC[C@@H](C(=O)N[C@@H](CCCNC(=N)N)C(=O)N[C@@H](Cc2ccc(O)cc2)C(=O)NCC(=O)O)NC(=O)CNC(=O)[C@H](CCCCN)NC(=O)[C@H](CCCCN)NC(=O)[C@@H]2CSSC[C@H](NC1=O)C(=O)N[C@@H](CCC(N)=O)C(=O)N[C@@H](CCCNC(=N)N)C(=O)N[C@@H](Cc1ccc(O)cc1)C(=O)N[C@@H](Cc1c[nH]cn1)C(=O)N[C@@H](CCC(N)=O)C(=O)N[C@@H](CCCNC(=N)N)C(=O)N[C@@H](CCCNC(=N)N)C(=O)N[C@@H](CCC(N)=O)C(=O)N[C@@H](CCCNC(=N)N)C(=O)N[C@@H](CCCNC(=N)N)C(=O)N[C@@H](CCC(N)=O)C(=O)N2` gave an inhibition of 41.2 ± 2.9% (Kv1.1 (human); ion current, inhibitor; concentration not given, pH 7.4).
For `COC(=O)C1=CO[C@@H](O)[C@@H]2C(Cn3cc(-c4ccc(OC)cc4)nn3)=CC[C@H]12`, the viability was 63 ± 2.6% (SK-N-SH; neuroprotection, MTT; 0.15 µM, 24 h, with: 250 µM H2O2).
Under “duration of ALP inhibition”, `COc1ccc(F)cc1S(=O)(=O)Nc1cnc2c(c1)C(=O)NCCO2` is recorded as no more than 6 h (alkaline phosphatase; mouse, plasma; oral, dose not given).

A few entries again:
With `COC(=O)C1=CO[C@@H](OC(C)=O)[C@@H]2C(Cn3cc(-c4ccc(OC)cc4)nn3)=CC[C@H]12` the viability was 72.5 ± 0.6% (SK-N-SH; neuroprotection, MTT; 0.075 µM, 24 h, with: 250 µM H2O2).
